Experimental data of several laboratories.
Each numbered part is a random draw from the data of one study; scales do not carry over between parts. Positions count from the first letter of the parent shown.
Chain of UniProt P10721 (whole entry, unmodified, looked up): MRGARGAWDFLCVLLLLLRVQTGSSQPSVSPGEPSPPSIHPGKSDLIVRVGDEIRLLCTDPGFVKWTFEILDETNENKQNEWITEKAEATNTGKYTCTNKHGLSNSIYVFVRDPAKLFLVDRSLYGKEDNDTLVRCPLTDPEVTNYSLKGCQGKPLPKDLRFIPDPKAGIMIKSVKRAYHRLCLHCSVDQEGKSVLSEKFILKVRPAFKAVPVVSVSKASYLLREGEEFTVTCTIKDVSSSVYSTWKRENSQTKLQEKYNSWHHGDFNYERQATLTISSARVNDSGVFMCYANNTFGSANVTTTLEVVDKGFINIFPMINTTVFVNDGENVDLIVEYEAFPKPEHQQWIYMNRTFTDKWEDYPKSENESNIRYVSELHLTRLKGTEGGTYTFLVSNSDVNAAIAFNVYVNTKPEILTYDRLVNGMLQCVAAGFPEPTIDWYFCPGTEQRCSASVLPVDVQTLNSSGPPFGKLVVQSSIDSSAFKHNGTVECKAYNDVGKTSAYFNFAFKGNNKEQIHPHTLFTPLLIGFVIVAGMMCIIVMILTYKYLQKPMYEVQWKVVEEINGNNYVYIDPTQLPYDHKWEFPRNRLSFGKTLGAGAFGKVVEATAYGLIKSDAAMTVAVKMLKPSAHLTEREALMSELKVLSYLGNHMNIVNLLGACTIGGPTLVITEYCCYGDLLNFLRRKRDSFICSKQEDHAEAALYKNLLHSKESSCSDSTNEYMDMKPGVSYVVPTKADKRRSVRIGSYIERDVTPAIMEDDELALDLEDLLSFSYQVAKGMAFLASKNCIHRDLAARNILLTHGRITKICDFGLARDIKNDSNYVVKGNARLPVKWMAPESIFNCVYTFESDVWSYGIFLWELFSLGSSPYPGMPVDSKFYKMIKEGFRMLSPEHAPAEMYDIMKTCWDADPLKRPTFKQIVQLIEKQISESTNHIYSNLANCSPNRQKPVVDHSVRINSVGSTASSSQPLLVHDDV
Chain of UniProt O14936 (whole entry, looked up): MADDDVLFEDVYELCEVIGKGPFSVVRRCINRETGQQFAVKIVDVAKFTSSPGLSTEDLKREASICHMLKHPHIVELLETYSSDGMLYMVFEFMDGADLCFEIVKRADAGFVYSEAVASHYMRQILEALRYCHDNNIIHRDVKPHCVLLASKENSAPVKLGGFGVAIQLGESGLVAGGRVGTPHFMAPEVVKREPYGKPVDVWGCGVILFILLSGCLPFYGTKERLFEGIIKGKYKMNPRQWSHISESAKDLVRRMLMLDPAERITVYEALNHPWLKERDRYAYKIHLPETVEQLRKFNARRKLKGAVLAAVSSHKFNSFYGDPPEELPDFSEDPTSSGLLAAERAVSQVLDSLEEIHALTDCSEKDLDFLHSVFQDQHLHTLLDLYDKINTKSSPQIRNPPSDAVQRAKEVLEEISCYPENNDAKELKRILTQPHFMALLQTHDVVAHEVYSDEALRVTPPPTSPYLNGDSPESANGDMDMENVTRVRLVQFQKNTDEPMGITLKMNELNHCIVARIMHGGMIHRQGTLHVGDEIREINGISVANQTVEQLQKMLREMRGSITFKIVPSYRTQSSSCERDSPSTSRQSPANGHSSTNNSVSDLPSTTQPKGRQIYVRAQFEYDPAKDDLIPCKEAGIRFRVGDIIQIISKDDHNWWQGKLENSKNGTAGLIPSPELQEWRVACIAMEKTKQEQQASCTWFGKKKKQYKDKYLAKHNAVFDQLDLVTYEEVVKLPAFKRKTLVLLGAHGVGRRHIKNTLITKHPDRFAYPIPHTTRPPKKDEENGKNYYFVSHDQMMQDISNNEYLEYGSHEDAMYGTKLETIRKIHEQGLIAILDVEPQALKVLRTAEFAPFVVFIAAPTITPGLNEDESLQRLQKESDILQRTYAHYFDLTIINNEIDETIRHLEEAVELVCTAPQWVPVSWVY
Chain of UniProt P57059 (whole entry, looked up): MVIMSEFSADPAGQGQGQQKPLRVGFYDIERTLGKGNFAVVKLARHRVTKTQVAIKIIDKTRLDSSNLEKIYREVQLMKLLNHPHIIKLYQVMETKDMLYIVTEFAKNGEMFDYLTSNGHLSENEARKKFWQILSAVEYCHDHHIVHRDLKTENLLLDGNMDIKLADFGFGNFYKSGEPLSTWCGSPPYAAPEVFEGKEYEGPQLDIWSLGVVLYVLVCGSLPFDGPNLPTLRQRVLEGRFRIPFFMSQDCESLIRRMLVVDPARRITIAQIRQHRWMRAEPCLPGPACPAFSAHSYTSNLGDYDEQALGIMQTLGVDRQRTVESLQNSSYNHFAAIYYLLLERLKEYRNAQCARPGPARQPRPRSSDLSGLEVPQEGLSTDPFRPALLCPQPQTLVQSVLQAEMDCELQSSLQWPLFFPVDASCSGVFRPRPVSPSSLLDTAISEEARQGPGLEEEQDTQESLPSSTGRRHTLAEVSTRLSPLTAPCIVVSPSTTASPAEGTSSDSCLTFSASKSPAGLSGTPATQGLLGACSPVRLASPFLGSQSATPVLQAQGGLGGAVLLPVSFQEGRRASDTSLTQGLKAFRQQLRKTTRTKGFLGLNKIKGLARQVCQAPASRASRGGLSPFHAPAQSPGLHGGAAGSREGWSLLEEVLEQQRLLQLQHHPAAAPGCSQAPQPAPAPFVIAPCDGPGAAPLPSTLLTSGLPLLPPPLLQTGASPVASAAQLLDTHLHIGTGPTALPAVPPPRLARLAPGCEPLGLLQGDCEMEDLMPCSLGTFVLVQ
Chain of UniProt O75716 (whole entry, looked up): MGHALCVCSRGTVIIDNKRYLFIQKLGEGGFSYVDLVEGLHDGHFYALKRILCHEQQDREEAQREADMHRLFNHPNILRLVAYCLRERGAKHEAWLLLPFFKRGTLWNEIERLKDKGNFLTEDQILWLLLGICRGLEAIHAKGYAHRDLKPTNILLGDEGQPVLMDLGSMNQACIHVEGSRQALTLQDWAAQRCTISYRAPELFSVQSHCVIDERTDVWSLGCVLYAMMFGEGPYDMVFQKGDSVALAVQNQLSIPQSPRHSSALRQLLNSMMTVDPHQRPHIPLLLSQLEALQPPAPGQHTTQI

Series 1
Compound: Nc1c(C(=O)NCc2ccc(C(=O)NCCCC3CCCCC3)cc2)cnn1-c1ccccc1
target | effect on | technique | tested at | remaining binding
ERBB2 (Homo sapiens, UniProt P04626) | cell-free assay | competition with immobilised ligand | 0.1 µM | 100%
KIT (Homo sapiens, UniProt P10721) | binding | competition with immobilised ligand | 1 µM | 45%
STK17B (Homo sapiens, UniProt O94768) | cell-free assay | competition with immobilised ligand | 0.1 µM | 94%
MYLK (Homo sapiens, UniProt Q15746) | cell-free assay | competition with immobilised ligand | 0.1 µM | 68%
PNCK (Homo sapiens, UniProt Q6P2M8) | cell-free assay | competition with immobilised ligand | 0.1 µM | 100%
SIK1 (Homo sapiens, UniProt P57059) | – | competition binding | 0.1 µM | 100%
PHKG2 (Homo sapiens, UniProt P15735) | cell-free assay | competition with immobilised ligand | 0.1 µM | 100%
MAP2K3 (Homo sapiens, UniProt P46734) | cell-free assay | competition with immobilised ligand | 0.1 µM | 85%
STK16 (Homo sapiens, UniProt O75716) | cell-free assay | competition with immobilised ligand | 0.1 µM | 100%
KIT (Homo sapiens, UniProt P10721, L576P) | cell-free assay | competition with immobilised ligand | 0.1 µM | 73%
CASK (Homo sapiens, UniProt O14936) | cell-free assay | competition with immobilised ligand | 0.1 µM | 78%
BMPR1A (Homo sapiens, UniProt P36894) | cell-free assay | competition with immobilised ligand | 0.1 µM | 100%
MAP3K11 (Homo sapiens, UniProt Q16584) | cell-free assay | competition with immobilised ligand | 0.1 µM | 76%
CDK18 (Homo sapiens, UniProt Q07002) | cell-free assay | competition with immobilised ligand | 0.1 µM | 100%
FLT3 (Homo sapiens, UniProt P36888, D835V) | cell-free assay | competition with immobilised ligand | 0.1 µM | 100%

Series 2
Target: OGT, full length, His-tagged (human)
Technique: phage display, sequencing
Matrix: in vitro
Tested at: 1 µg OGT
Notes: single substitutions, 15-mer displayed peptide, unchanged parent 6.14
Baseline: input library
Direction: higher = stronger binding
Parent: peptide; VAYPNSYMPKYQIST
Substitution | fold enrichment
S6L | 15.6 fold
M8R | 1.45 fold
Q12A | 0.624 fold
T15V | 9.41 fold
Y7R | 0.936 fold
A2T | 5.79 fold
Y11W | 0.932 fold
K10N | 0.509 fold

Series 3
Target: PAS domain-containing serine/threonine-protein kinase (PASK, Homo sapiens, UniProt Q96RG2)
Chain of UniProt Q96RG2 (whole entry, looked up): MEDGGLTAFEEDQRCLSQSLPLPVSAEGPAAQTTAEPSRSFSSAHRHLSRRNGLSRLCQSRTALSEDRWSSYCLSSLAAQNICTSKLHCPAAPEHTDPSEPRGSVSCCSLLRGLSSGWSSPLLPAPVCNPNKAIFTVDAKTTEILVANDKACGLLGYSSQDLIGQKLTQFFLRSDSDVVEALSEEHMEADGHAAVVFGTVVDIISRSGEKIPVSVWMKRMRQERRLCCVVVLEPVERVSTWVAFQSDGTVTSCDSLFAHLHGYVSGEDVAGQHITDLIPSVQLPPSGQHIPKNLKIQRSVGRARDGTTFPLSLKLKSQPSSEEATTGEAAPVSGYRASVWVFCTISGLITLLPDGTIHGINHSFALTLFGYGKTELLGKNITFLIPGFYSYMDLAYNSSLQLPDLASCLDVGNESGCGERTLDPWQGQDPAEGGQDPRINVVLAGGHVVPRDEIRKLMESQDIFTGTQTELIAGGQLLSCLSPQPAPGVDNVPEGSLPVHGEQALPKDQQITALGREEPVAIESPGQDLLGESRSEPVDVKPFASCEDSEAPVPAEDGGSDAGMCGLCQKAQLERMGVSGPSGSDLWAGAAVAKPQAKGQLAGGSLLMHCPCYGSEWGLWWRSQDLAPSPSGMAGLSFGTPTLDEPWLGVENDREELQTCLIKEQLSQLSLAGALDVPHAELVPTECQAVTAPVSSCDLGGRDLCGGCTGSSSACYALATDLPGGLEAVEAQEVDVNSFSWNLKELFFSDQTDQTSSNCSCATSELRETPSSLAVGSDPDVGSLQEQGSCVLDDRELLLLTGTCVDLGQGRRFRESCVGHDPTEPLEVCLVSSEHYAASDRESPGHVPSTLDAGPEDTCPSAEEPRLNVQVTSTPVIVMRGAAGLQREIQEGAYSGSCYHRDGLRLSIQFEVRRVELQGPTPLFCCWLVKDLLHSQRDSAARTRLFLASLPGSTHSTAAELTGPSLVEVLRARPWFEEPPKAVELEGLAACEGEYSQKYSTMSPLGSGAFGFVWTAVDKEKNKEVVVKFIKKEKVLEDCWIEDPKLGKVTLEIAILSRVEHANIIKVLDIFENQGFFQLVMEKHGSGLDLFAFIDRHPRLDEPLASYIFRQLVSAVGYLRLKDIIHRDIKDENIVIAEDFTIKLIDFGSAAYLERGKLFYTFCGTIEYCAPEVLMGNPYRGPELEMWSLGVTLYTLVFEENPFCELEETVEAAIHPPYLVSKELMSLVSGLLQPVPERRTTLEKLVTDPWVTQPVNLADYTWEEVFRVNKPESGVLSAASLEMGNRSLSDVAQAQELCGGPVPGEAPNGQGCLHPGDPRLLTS
Effect on: enzyme activity
Mode: inhibitor
Tested at: 0.5 µM
Baseline: control
Compound | remaining activity
CO[C@H]1C[C@@H]2CC[C@@H](C)[C@@](O)(O2)C(=O)C(=O)N2CCCC[C@H]2C(=O)O[C@H]([C@H](C)C[C@@H]2CC[C@@H](O)[C@H](OC)C2)CC(=O)[C@H](C)/C=C(\C)[C@@H](O)[C@@H](OC)C(=O)[C@H](C)C[C@H](C)/C=C/C=C/C=C/1C | 101%
C#Cc1cccc(Nc2ncnc3cc(OCCOC)c(OCCOC)cc23)c1 | 97.4%
O=C(Nc1cccc(Nc2cc(Nc3cccc(C(F)(F)F)c3)ncn2)c1)C1CC1 | 98.3%
CCOC(=O)c1c(C)[nH]c(/C=C2\C(=O)Nc3ccccc32)c1C | 91.4%
O=C1NC(=O)C(c2cn(CCCn3ccnc3)c3ccccc23)=C1Nc1ccccc1 | 98%
CNC(=O)c1cc(Oc2ccc(NC(=O)Nc3ccc(Cl)c(C(F)(F)F)c3)cc2)ccn1 | 99.5%
Nc1ccc2ncnc(NCCc3ccc(Oc4ccccc4)cc3)c2c1 | 103%
Nc1[nH]nc2nc3ccccc3nc12 | 93.7%
Oc1ccc(-c2nc(-c3ccncc3)c(-c3ccc(F)cc3)[nH]2)cc1 | 79.3%
Cc1ccc(NC(=O)c2ccc(CN3CCN(C)CC3)cc2)cc1Nc1nc(-c2cccnc2)cs1 | 103%
COc1cc2ncnc(Nc3ccc(Oc4ccccc4)cc3)c2cc1OC | 104%
Cc1nc(-c2ccccc2)c(-c2ccncc2)o1 | 98.1%
O=C(CCCc1ccc(-c2ccccc2F)cc1)Nc1ccc(O)cc1 | 101%
Cn1sc(=O)n(Cc2ccccc2)c1=O | 101%
N#CC(C#N)=C(N)/C(C#N)=C/c1ccc(O)cc1 | 82.9%

Series 4
Target: Protein C-ets-1, full length (ETS1, Homo sapiens, UniProt P14921, residues 1-441)
Chain of UniProt P14921 (whole entry, looked up): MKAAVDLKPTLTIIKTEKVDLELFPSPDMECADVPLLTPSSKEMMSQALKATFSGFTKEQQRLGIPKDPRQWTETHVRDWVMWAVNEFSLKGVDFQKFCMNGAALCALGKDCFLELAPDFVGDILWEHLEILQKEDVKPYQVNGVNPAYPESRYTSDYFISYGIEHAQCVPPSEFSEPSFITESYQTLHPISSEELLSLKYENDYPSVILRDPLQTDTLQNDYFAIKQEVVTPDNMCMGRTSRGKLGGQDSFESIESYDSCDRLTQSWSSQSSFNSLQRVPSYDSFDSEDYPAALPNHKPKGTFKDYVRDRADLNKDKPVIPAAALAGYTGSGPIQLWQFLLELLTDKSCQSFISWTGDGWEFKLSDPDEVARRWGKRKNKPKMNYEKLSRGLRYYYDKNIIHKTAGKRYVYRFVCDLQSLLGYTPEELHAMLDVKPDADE
Technique: protein-binding microarray
Form: hairpin DNA
Matrix: in vitro
Tested at: not given
Notes: whole hairpin DNA, median over replicate spots
Baseline: not given
Direction: higher = stronger binding
Oligonucleotide | median fluorescence
GAGGCCAGCCGGAACTTGCCTCCTGGCAAGTTCCGGCTGGCCTCACACTC | 3290 a.u.
GAGGCCAGCGGGAAGTTGCCTCCTGGCAACTTCCCGCTGGCCTCACACTC | 2170 a.u.
GAGGCCAGCCGGCAGTTGCCTCCTGGCAACTGCCGGCTGGCCTCACACTC | 603 a.u.
GAGGCCAGCGGGAAGTTGCCTCCTGGCAACTTCCCGCTGGCCTCACACTC (5mC at 9) | 1130 a.u.
GAGGCCGGCCGGAAGTTGCCTCCTGGCAACTTCCGGCCGGCCTCACACTC | 9300 a.u.
GAGGCCAGTCGGAAGGTGCCTCCTGGCACCTTCCGACTGGCCTCACACTC (5mC at 29) | 962 a.u.
GAGGCCAGTCGGAAGTTGCCTCCTGGCAACTTCCGACTGGCCTCACACTC (5mC at 10) | 643 a.u.
GAGGCCAGCGGGAAGTTGCCTCCTGGCAACTTCCCGCTGGCCTCACACTC (5mC at 35) | 2520 a.u.
